Measurements collected from several papers.
Each numbered part is a random draw from the data of one study; scales do not carry over between parts. Substitutions count along the parent as printed.

Block 1 — method: RNA Bind-n-Seq; molecule type: RNA; medium: in vitro; tested at: 200 nM; setting: whole 134-nt RNA, ends assumed; with: 150 mM LiCl; reference: input library; reading: higher = stronger binding; endpoint: log2 enrichment; library: 7-deaza-guanosine replaces G
Target: Fragile X messenger ribonucleoprotein 1, C-terminal low-complexity region (Fmr1, Mus musculus, UniProt P35922)
Shared flanks, not repeated: GGGAGUUCUACAGUCCGACGAUC … UGGAAUUCUCGGGUGUCAAGG
CAAGUCCUGUGCUACACAUCGUAUGUACCGAAUCGGAAAAGGGAAAAGGAAAAGGGAAAGUAUUAUGUUACGCCGUUCGGAUCUGCACUU: -1.28
CAAGUCCUGUGCUACACAUCGUAUGUACCGAAUCGGGGCCCGGCCCGGGGCCCGGGAAAGUAUUAUGUUACGCCGUUCGGAUCUGCACUU: -1.89
UCCUGUGCUACACAUCGUAUGUACCGAAUCGGGGAAAGGGGUUUUUGGGGUUUUUGGGGAAAGUAUUAUGUUACGCCGUUCGGAUCUGCA: -0.85
GUCCUGUGCUACACAUCGUAUGUACCGAAUCGGGUUUUUUGGGUUUUUUGGUUUUUUGGAAAGUAUUAUGUUACGCCGUUCGGAUCUGCA: -1.61
GCAGGAAGUAAAAACAAAUGGAAAUGCUUCGGAUAGUGGCAGGGGUGGGGGUUGCUAAGGAAAGGGUGGGAAGGGAGUGGGUAAAGAGUU: 1.73
CAAGUCCUGUGCUACACAUCGUAUGUACCGAAUCGGAAAAAAAGGAAAGGAAAGGAAAGUAUUAUGUUACGCCGUUCGGAUCUGCACUUC: -0.978
UUAUUCUGUGUGACACCUGCCCUCGUGCCUACCACCUCGUCUGCCUUGAUCCUGAGCUUGACCGGGCUCCAGAGGGCAAAUGGAGCUGCC: 1.28
UCCUCAAGUCCUGUGCUACACAUCGUAUGUACCGAAUCGGCGGGCGGCGGGGAAAGUAUUAUGUUACGCCGUUCGGAUCUGCACUUCCAG: 1.12
GUCCUGUGCUACACAUCGUAUGUACCGAAUCGGGCCCCCGGCCCCCGGGGCCCCCGGGGAAAGUAUUAUGUUACGCCGUUCGGAUCUGCA: -2.66
UCAAGUCCUGUGCUACACAUCGUAUGUACCGAAUCGGGGUUUGGUUUGGGUUUGGAAAGUAUUAUGUUACGCCGUUCGGAUCUGCACUUC: -1.42
CUCAAGUCCUGUGCUACACAUCGUAUGUACCGAAUCGGGCCGGGCCGGCCGGGAAAGUAUUAUGUUACGCCGUUCGGAUCUGCACUUCCA: 1.01

Block 2 — method: aptamer microarray, sandwich; molecule type: DNA with 2'F-ANA; medium: in vitro; tested at: 200 nM; with: Cy3 exosite-II aptamer, 400 nM; reading: higher = stronger binding; endpoint: mean fluorescence intensity; strand: GGTTGGTGTGGTTGG
Target: Prothrombin, mature alpha-thrombin (F2, Homo sapiens, UniProt P00734)
Setting: whole 15-mer aptamer, many near background
2'F-ANA at 2 5 6 11 12 13 15: 83.2 a.u.
2'F-ANA at 1 3 5 15: 63.4 a.u.
2'F-ANA at 2 5 7 8 12: 147 a.u.
2'F-ANA at 3 4 8 9 12 13 15: 633 a.u.
2'F-ANA at 2 7 9 10 12 13 14 15: 91.4 a.u.
2'F-ANA at 1 2 4 5 6 7 8 9 11 14 15: 49.4 a.u.
2'F-ANA at 1 4 5 7 14 15: 48.2 a.u.
2'F-ANA at 9 10 12: 225 a.u.
2'F-ANA at 2 5 6 7 8 9 10 12 13 14: 85.1 a.u.
2'F-ANA at 1 3 4 5 10 13: 44.9 a.u.
2'F-ANA at 1 7 9 11 14 15: 99 a.u.
2'F-ANA at 2 3 5 6 11 12 13 15: 109 a.u.
2'F-ANA at 7 8 12 13: 897 a.u.
2'F-ANA at 1 2 6 7 12 13 14 15: 63.1 a.u.
2'F-ANA at 9: 532 a.u.
2'F-ANA at 2 4 7 9 10 13 14 15: 63.4 a.u.
2'F-ANA at 1 4 6 8 9 10 11 12 14: 56.3 a.u.
2'F-ANA at 8 9 10 14 15: 94.9 a.u.
2'F-ANA at 1 3 4 12: 487 a.u.
2'F-ANA at 2 5 6 7 8 9: 85.6 a.u.
2'F-ANA at 1 3 4 6 9 11 13: 110 a.u.

Block 3 — target: CCND1, cyclin fold, Cln2 fusion (human); method: yeast growth competition, sequencing; medium: yeast; setting: weak parent motif; reference: not given; reading: higher = stronger binding; endpoint: normalised enrichment score
Parent: CDKN1B docking peptide (human); PSACRNLFGPVDH
WSACRNLFGPVDH [P1W]: 0.554
PSACRNLFGPVRH [D12R]: 0.319
PSCCRNLFGPVDH [A3C]: 0.402
PSACRNFFGPVDH [L7F]: 0.27
PSVCRNLFGPVDH [A3V]: 0.667
PSACKNLFGPVDH [R5K]: 0.167
PSACRNQFGPVDH [L7Q]: -0.202
PSACRNLFGPVIH [D12I]: 0.577
PSACRNLWGPVDH [F8W]: 0.615
PSACRNLPGPVDH [F8P]: 0.0694
PRACRNLFGPVDH [S2R]: 0.635
PSAIRNLFGPVDH [C4I]: 0.545
PSACRNLFGPVYH [D12Y]: 0.459
PFACRNLFGPVDH [S2F]: 0.315
PSACRNLFGPVVH [D12V]: 0.543
PSACRNLFNPVDH [G9N]: 0.237
PSACRFLFGPVDH [N6F]: -0.0677
PSMCRNLFGPVDH [A3M]: 0.343
PDACRNLFGPVDH [S2D]: 0.733
PSACRNLRGPVDH [F8R]: -0.112
PSACRLLFGPVDH [N6L]: 1.22
PSACRNLGGPVDH [F8G]: -0.112
PSACRNLFGPSDH [V11S]: 1.27
PSACRNSFGPVDH [L7S]: 0.0729
PSACRNLKGPVDH [F8K]: 0.574

Block 4 — method: protein binding microarray; molecule type: double-stranded DNA, one strand shown; medium: in vitro; tested at: not given; reference: not given; reading: higher = stronger binding; endpoint: E-score
Target: Histone acetyltransferase KAT6A, winged helix 1, GST fusion (KAT6A, Homo sapiens, UniProt Q92794, residues 1-85)
Setting: 8-mer, flanks averaged, mean of 2 arrays, mostly near background
Construct (chain): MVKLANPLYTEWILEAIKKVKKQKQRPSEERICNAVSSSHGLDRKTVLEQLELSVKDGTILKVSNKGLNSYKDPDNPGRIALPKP
CGACCCCC: 0.157
GGTCTATA: -0.162
CGTGTCCC: 0.18
CGGAGCGA: 0.0918
AACTAAAG: -0.122
ATTGGTCA: -0.184
ACTAGTAG: 0.0483
CCTTGACC: 0.0651
CCGTAGCG: 0.388
TCGTGAGA: 0.0819
AAAGGACT: -0.181
GTGTGTAA: -0.126
CATTGCCA: -0.22
CACTCCCA: -0.0941
ACAACCCA: -0.143
AACAATCA: -0.118
TACCTCCA: -0.186
GGGAGAAC: -0.109
ACTGAGTC: -0.123
AATGTTAA: -0.193
AGGATATC: -0.191

Block 5 — method: protein-binding microarray; molecule type: double-stranded DNA, one strand shown; medium: in vitro; tested at: 250 nM; setting: 60-bp whole probe; with: salmon DNA 0.4 mg/ml; reference: random background probes; reading: higher = stronger binding; endpoint: log fluorescence; shared flanks, not repeated: GCCTAGCAC … GTCTTGATTCGCTTGACGCTGCTG
Target: Interferon regulatory factor 5, full length, phosphomimetic (IRF5, Homo sapiens, UniProt Q13568-2, residues 1-514, K96S/S451D/S453D/S456D/S462D)
CCTGGCTTCATGTTGCTCTCCGTGCTA: -0.254 z-score
TTAGAACTTGGGTATCGATTAGTGCTA: 3.97 z-score
GACGGACTGGACACTTGGGACGTGCTA: -0.503 z-score
TCACCTTTGCCTCCAGGACTGTGCTAG: 0.0808 z-score
CCTCCCTCTCCCGGAGTTCCGTGCTAG: -0.351 z-score
TCATGTTTGAGAAATCAGACTGTGCTA: 0.167 z-score
TTCGGTATCGGGTATCGGTTAGTGCTA: 7.73 z-score
TCAGTCCTGGCTTTGACACTGTGCTAG: -0.385 z-score
ATGTTCACTGTGTACCGTCTGTGCTAG: -0.138 z-score
TTTGGTTTCGACACTGGGTTAGTGCTA: 8.14 z-score
CATTTTCTCTGTTCTAGAAGGTGCTAG: 1.77 z-score
CTCCCTTTCAGTTTTCCTATGTGCTAG: 3.45 z-score
GACGGACTGCTTTTCATGACGTGCTAG: 0.0539 z-score
TTTGGACTGGGACTGGGTTAGTGCTAG: -0.599 z-score
TTAGCTTCCCTTTTCCTTTAGTGCTAG: 0.717 z-score
TTAGGTATCGGACTGGCTTAGTGCTAG: 1.32 z-score
TCACCATTGGTCTTCACACTGTGCTAG: 0.0586 z-score
TTAGGTATCGGTCTAGGTTAGTGCTAG: 7.65 z-score
TACTGTCTGTTTCCTCTTTCTGTGCTA: 2.04 z-score
AACGGTTTCGGTATCGGGACGTGCTAG: 9.98 z-score
TTAGATATCAGTAGCGATTAGTGCTAG: 1.24 z-score
GACGGACTGGGGTTTCGGGATGTGCTA: 1.77 z-score
